Measurements from different studies.
Compare with care: the assays were run in different laboratories. ± marks the error that the study gave.

SMILES = N#Cc1ccnc(N2C(=O)CC[C@H]2C(=O)N(c2cncc(F)c2)[C@H](C(=O)NC2CC(F)(F)C2)c2ccccc2Cl)c1; test system = cynomolgus monkey, plasma; conditions = intravenous, 1 mg/kg; quantity = clearance; value = 3.33 mL/min/kg
SMILES = Cc1cc(-c2ccc(C(=O)[C@@H]3CCCC[C@H]3C(=O)Nc3cnn4c3C(=O)NCC4)cc2)[nH]n1; test system = human, urine; conditions = oral, 200 mg, 0-12 h; how to read = baseline: dose; quantity = cumulative recovery of radioactivity; value = 4.74%
SMILES = CC(C)(O)c1ncc([S@](N)(=O)=NC(=O)Nc2c3c(cc4c2CCC4)CCC3)s1; test system = healthy human subjects; conditions = oral, 30 mg, capsule; quantity = subjects with cardiac adverse events; value = 17%
SMILES = O=C(Nc1cnccc1-c1ccc([18F])nc1)c1ccnc(NC(=O)C2CC2)c1; test = ex vivo gamma counting; test system = FVB/NJ mice, both sexes, left kidney; conditions = intravenous, 120 min, added: tariquidar 15 mg/kg iv; quantity = mean SUV; value = 0.431
SMILES = COc1cccc(OC)c1-c1cc(C(=O)NC2(C(=O)O)C3CC4CC(C3)CC2C4)nn1-c1ccc(C(=O)N(C)CCCN(C)C(=O)[C@H](CCCCNC(=O)[C@H](CC(C)C)NC(=O)C2OC2C(=O)O)NC(=O)CN2CCN(CC(=O)[O-])CCN(CC(=O)[O-])CCN(CC(=O)[O-])CC2)cc1C(C)C.[177Lu+3] (mixture of isomers); test system = mouse HT-29 xenograft; conditions = 168 h, biodistribution; how to read = baseline: tumour over small intestine; quantity = tumour-to-small intestine ratio; value = 23.7
SMILES = Clc1cc(NCc2ccco2)c2cccc(OCC3COCCO3)c2n1 (stereo not drawn); test system = C57BL/6 mouse, heart; conditions = oral, 30 mg/kg, 0.5 h; how to read = baseline: heart over plasma; quantity = tissue/plasma ratio; value = 0.48
SMILES = CCCCN1C(=O)c2cccc3c(NCCCN4CCOCC4)ccc(c23)C1=O; test system = water; conditions = pH 6.0; quantity = fluorescence lifetime; value = 5.4 ns
SMILES = CCC(C(=O)Nc1ccc(C(N)=O)c(F)c1)n1cc(OC)c(-c2cc(Cl)ccc2-n2cc(C(F)(F)F)nn2)cc1=O (stereo not drawn); test system = male humans; conditions = oral, 50 mg, fasted; quantity = subjects with moderate adverse event; value = 7.1%
SMILES = COc1cccc(OC)c1-c1cc(C(=O)NC2(C(=O)O)C3CC4CC(C3)CC2C4)nn1-c1ccc(C(=O)N(C)CCOCCOCCN(C)C(=O)[C@H](CCCCNC(=O)[C@H](CC(C)C)NC(=O)C2OC2C(=O)O)NC(=O)CN2CCN(CC(=O)[O-])CCN(CC(=O)[O-])CCN(CC(=O)[O-])CC2)cc1C(C)C.[177Lu+3] (mixture of isomers); test system = mouse, HT-29 xenograft; conditions = 24 h post injection, biodistribution; how to read = baseline: tumour over lung uptake; quantity = tumour-to-lung ratio; value = 3.7
SMILES = COc1ccnc(C(=O)N[C@H]2COC(=O)[C@H](Cc3ccccc3)[C@@H](OC(=O)C(C)C)[C@H](C)OC2=O)c1O; test system = wheat grain; conditions = -18 °C; quantity = storage stability of residues; value = 9 months
SMILES = CC(C(=O)O)n1nc(Cn2cc3cc(OCC[18F])c(Cl)cc3n2)c2ccccc2c1=O (racemic); test system = rat, spleen; conditions = 1 h; quantity = tracer uptake; value = 0.05 %ID/g
SMILES = O=C(c1ccccc1)N1C(c2ccc(OCC3CCN(CCCF)C3)cc2)c2ccc(O)cc2CC12CC2 (stereo not drawn); test system = C57BL/6J mice, plasma; conditions = intraperitoneal, 25 mg/kg; quantity = AUC extrapolated; value = 0.345%
SMILES = CC[C@H](C)[C@H](NC(=O)CNC(=O)[C@H](C)NC(=O)[C@H](CC(=O)O)NC(=O)[C@H](CO)NC(=O)[C@H](C)NC(=O)[C@H](CC(C)C)NC(=O)[C@H](CCCCN)NC(=O)[C@H](CCCCN)NC(=O)[C@H](CCSC)NC(=O)[C@H](CC(N)=O)NC(=O)[C@H](Cc1ccccc1)NC(=O)[C@H](CC(=O)O)NC(=O)[C@@H](N)CCSC)C(=O)N[C@@H](Cc1c[nH]c2ccccc12)C(=O)N[C@@H](Cc1ccccc1)C(=O)N[C@H](C(=O)N[C@@H](CCCNC(=N)N)C(=O)N[C@@H](C)C(=O)N[C@H](C(=O)N[C@@H](CCC(N)=O)C(=O)N[C@@H](Cc1ccccc1)C(=O)N[C@H](C(=O)N[C@@H](CCC(=O)O)C(=O)N[C@@H](CCC(=O)O)C(=O)N[C@@H](CCCCN)C(=O)N[C@@H](Cc1ccccc1)C(=O)NCC(=O)N[C@@H](CCC(N)=O)C(=O)N[C@@H](C)C(N)=O)[C@@H](C)O)C(C)C)[C@@H](C)O; test system = water; quantity = folding free energy; value = 5.99 kcal/mol
SMILES = C=CC(=O)Nc1cc(Nc2nccc(-c3c[nH]c4ccccc34)n2)c(OC)cc1N(C)CCN(C)C; test = storage stability; test system = human dried blood spots; conditions = 72 h, -80 °C, medium QC level; quantity = recovery; value = 90.1%
SMILES = CCCC[C@H](OC(C)=O)c1ccccc1C(=O)O; test system = beagle dog, both sexes, whole blood; conditions = intravenous, 1.5 mg/kg, single dose, fitted within 1 h; quantity = half-life; value = 0.31 ± 0.1 h
SMILES = CC[C@H](C)[C@@H]1NC(=O)[C@H](Cc2ccc(O)cc2)NC(=O)CCCSC[C@@H](C(=O)N(CC(=O)N[C@@H](CC(C)C)C(=O)NCC(N)=O)Cc2ccc(F)cc2)NC(=O)[C@H](CC(N)=O)NC(=O)[C@H](CCC(N)=O)NC1=O; test system = healthy women, plasma; conditions = intranasal, 100 µg single dose; quantity = terminal half-life; value = 1.99 h
SMILES = N#CC(C#N)=NNc1ccc(-c2ccc(F)cc2F)cc1; test = 1H NMR titration; test system = aqueous ATPase buffer; conditions = 1% DMSO; quantity = solubility limit; value = > 250 µM
SMILES = O=C(Nc1cnccc1-c1ccc([18F])cc1)c1ccnc(NC(=O)C2CC2)c1; test system = FVB/NJ mice, both sexes, brain; conditions = intravenous, 5 min, median, no P-gp inhibitor; quantity = SUV; value = 0.88
SMILES = CCN(CC)c1ccc(-c2oc3cc4ccccc4cc3c(=O)c2O)cc1; test system = DMSO; quantity = CO release quantum yield; value = ~0.6%
SMILES = Cc1nc(N)nc2c1C(=O)N[C@@H](c1ccc(F)cc1-c1cccc(O[11CH3])n1)C2; test = ex vivo biodistribution; test system = mice, MDA-MB-231 subcutaneous xenograft, bone; conditions = 60 min post-injection, baseline, vehicle pre-treatment; quantity = SUV; value = 0.7 ± 0.1
SMILES = C=C(NC(=O)c1csc(-c2nc3c(cc2O)-c2nc(cs2)C(=O)NC(C(C)O)C(=O)NC(=C(C)OC)c2nc(cs2)C(=O)NC2c4nc(cs4)C(=O)NC(COC(=O)c4c5c6c(cccc6n4O)COC(=O)C(OC4CC(C)(O)C(N(C)C)C(C)O4)C2OC5)c2nc-3cs2)n1)C(N)=O (stereo not drawn); test system = cynomolgus monkey, male, plasma; conditions = intravenous infusion, 1.5 mg/kg twice daily, 0 to 30 h; quantity = AUC(0-last); value = 26900 ng·h/mL
SMILES = Cc1n[nH]c(C)c1CCCOc1cc(C(=O)NCCCCC(NC(=O)CN2CCN(CC(=O)[O-])CCN(CC(=O)[O-])CCN(CC(=O)[O-])CC2)C(=O)NCC2CCC(C(=O)NC(Cc3ccc4ccccc4c3)C(=O)NCCCCC(NC(=O)NC(CCC(=O)O)C(=O)O)C(=O)O)CC2)ccc1F.[68Ga+3] (stereo not drawn); test = micro-PET/CT; test system = mouse 22Rv1 xenograft, tumour; conditions = 2 h post-injection; quantity = maximum tumour uptake; value = 16.8 ± 1.45 %ID/g
SMILES = COc1cccc(OC)c1-c1cc(C(=O)NC2(C(=O)O)C3CC4CC(C3)CC2C4)nn1-c1ccc(C(=O)N(C)CCOCCN(C)C(=O)[C@H](CCCCNC(=O)[C@H](CC(C)C)NC(=O)C2OC2C(=O)O)NC(=O)CN2CCN(CC(=O)[O-])CCN(CC(=O)[O-])CCN(CC(=O)[O-])CC2)cc1C(C)C.[177Lu+3] (mixture of isomers); test system = mouse, HT-29 xenograft; conditions = 72 h post injection, biodistribution; how to read = baseline: tumour over lung uptake; quantity = tumour-to-lung ratio; value = 8.67
SMILES = COc1ccc2c(c1)CN(C(=O)CCN1CCC(Cc3ccccc3)CC1)CC[S+]2[O-] (stereo not drawn); test system = human plasma; conditions = 75 ng/mL; quantity = fu; value = 0.145
